Assay results of several laboratories.
STK3: Serine/threonine-protein kinase 3 (STK3, Homo sapiens, UniProt Q13188)
TDP1: Tyrosyl-DNA phosphodiesterase 1 (TDP1, Homo sapiens, UniProt Q9NUW8)
Chain of UniProt Q9NUW8 (whole entry, looked up): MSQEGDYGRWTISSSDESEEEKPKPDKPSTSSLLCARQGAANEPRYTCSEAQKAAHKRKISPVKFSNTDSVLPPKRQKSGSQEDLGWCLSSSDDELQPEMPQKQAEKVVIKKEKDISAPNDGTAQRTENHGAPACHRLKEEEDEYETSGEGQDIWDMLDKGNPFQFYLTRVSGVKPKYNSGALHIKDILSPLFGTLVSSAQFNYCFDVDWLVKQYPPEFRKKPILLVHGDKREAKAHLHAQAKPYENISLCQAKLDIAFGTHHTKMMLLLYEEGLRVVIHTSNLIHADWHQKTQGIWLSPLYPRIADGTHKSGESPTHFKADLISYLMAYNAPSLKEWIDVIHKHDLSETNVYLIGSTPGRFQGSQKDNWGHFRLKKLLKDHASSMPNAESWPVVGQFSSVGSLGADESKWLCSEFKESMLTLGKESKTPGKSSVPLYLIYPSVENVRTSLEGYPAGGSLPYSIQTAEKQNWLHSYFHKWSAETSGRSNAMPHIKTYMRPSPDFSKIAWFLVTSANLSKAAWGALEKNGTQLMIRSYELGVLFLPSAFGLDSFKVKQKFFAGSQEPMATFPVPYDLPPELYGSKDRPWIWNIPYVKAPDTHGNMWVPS

Structure (SMILES) = Cc1cccc(-c2ccc3nc(NC(=O)C4CCCO4)nn3c2)c1 (stereo not shown); target = STK3; test = enzyme activity, Dundee kinase panel; setting = 10 µM; quantity = remaining activity; result = 100%
Structure (SMILES) = C=CC(=O)Nc1cccc(-c2cnc3[nH]cc(C(=O)NC(C)(C)C)c3n2)c1; target = STK3; test = enzyme activity, inhibitor; setting = 0.1 µM; quantity = inhibition; result = 73%
Structure (SMILES) = COc1ccc(C(=O)/C=C/c2ccccc2-c2c[nH]c3ccc(C#N)cc23)c(O)c1; target = STK3; test = enzyme activity, inhibitor; setting = 20 µM; quantity = inhibition; result = 5%
Structure (SMILES) = Cc1nc(N2CCCCC2)nc(O)c1C=NOCc1ccc2nc(-c3ccccc3)c(Nc3ccc(C(=O)O)cc3)n2c1; target = TDP1; test = enzyme activity, inhibitor; setting = 100 µM, unpurified compound; quantity = inhibition; result = 34.2%
Structure (SMILES) = CNC1C[S+]2CC[S+]3CC[S+](C1)[Ru-4]321([N]=C=S)[n]2c3ccc(OC)cc3c3c4c(c5cc(F)c[n+]1c5c32)C(=O)NC4=O (stereo not shown); target = STK3; test = KinomeScan; setting = 0.1 µM; how to read = baseline: untreated; quantity = remaining binding; result = 95%
Structure (SMILES) = O=C(Cc1ccc(OCc2ccccc2)cc1)NC1(C(=O)O)CCN(C(=O)c2ccc(-c3cccc(Cl)c3)cc2)CC1; target = STK3; test = enzyme activity, inhibitor; setting = 10 µM; quantity = activity vs control; result = 100%
Structure (SMILES) = C=CC(=O)N1CCc2ccc(-n3c(=O)ccc4cnc5ccc(-c6cnn(C)c6)cc5c43)cc21; target = STK3; test = KINOMEscan; setting = 1 µM; how to read = baseline: DMSO control; quantity = remaining binding; result = 100%
Structure (SMILES) = Cc1ccc(C(=O)Nc2ccc(CN3CCN(C)CC3)c(C(F)(F)F)c2)cc1C#Cc1cnc2cccnn12; target = STK3; test = target engagement, NanoBRET; system = human cells; quantity = upper asymptote; result = 73.6
Structure (SMILES) = COc1cc(Br)ccc1C=NOCc1ccc2nc(-c3ccccc3)c(Nc3ccc(C(=O)O)cc3)n2c1; target = TDP1; test = enzyme activity, inhibitor; setting = 100 µM, unpurified compound; quantity = inhibition; result = 35.5%
Structure (SMILES) = CC(C)=CC1OC(C)(C)C2C=C3C(=O)C(Cl)=CC(O)C3C3C(O)C4OC4C(=O)C132 (stereo not shown); target = STK3; test = cell-free assay, competition with immobilised ligand; setting = 10 µM; quantity = remaining binding; result = 100%
Structure (SMILES) = CCN1CCN(Cc2ccc(C(=O)Nc3ccc(C)c(NCc4cnc5[nH]ccc5c4OC)c3)cc2C(F)(F)F)CC1; target = STK3; test = binding, competition with immobilised ligand; setting = 1 µM; quantity = remaining binding; result = 41%
Structure (SMILES) = Cc1ccc(-c2c(/C=C(\C#N)C(=O)NC(C)C)n(CCCO)c3ncnc(N)c23)cc1; target = STK3; test = cell-free assay, competition with immobilised ligand; setting = 1 µM; quantity = remaining binding; result = 100%
Structure (SMILES) = COC(=O)[C@@]1(C)C=C(C(=O)Nc2cccc(C(=O)Nc3ccc(Nc4nccc(-c5cccnc5)n4)c(C)c3)c2)C(=O)CC1; target = STK3; test = enzyme activity, inhibitor, radiometric; setting = 1 µM; quantity = remaining activity; result = 90%
Structure (SMILES) = CS(=O)(=O)Nc1cccc(-c2csc3cnc(Nc4ccc(N5CCN(CCCCCOc6cccc7c6C(=O)N(C6CCC(=O)NC6=O)C7=O)CC5)cc4)nc23)c1 (stereo not shown); target = STK3; test = probe labelling, inhibitor, KiNativ chemoproteomics; system = MOLT-4; setting = 1 µM; quantity = inhibition; result = -13%
Structure (SMILES) = NC(=O)C[C@H]1CCc2sc3ncnc(O[C@H]4CC[C@H](N5CCOCC5)CC4)c3c21; target = STK3; test = enzyme activity, inhibitor; setting = 10 µM; quantity = inhibition; result = 3%
Structure (SMILES) = C=CC(=O)N1Cc2nc(-c3cc(-c4cc(Cl)cnc4Cl)c(F)cc3F)n(-c3ccncn3)c2C1; target = STK3; test = cell-free assay, inhibitor; setting = 1 µM; quantity = inhibition; result = 7.9%

Excerpt of the above:
Structure (SMILES) = Cc1ccc(-c2c(/C=C(\C#N)C(=O)NC(C)C)n(CCCO)c3ncnc(N)c23)cc1; target = STK3; test = cell-free assay, competition with immobilised ligand; setting = 1 µM; quantity = remaining binding; result = 100%
